# Experimental data from different studies.
# Numbered parts are unrelated; each lists some results of a single study. Changes are numbered by the printed parent chain.
# Sequence of UniProt P06239 (whole entry, looked up): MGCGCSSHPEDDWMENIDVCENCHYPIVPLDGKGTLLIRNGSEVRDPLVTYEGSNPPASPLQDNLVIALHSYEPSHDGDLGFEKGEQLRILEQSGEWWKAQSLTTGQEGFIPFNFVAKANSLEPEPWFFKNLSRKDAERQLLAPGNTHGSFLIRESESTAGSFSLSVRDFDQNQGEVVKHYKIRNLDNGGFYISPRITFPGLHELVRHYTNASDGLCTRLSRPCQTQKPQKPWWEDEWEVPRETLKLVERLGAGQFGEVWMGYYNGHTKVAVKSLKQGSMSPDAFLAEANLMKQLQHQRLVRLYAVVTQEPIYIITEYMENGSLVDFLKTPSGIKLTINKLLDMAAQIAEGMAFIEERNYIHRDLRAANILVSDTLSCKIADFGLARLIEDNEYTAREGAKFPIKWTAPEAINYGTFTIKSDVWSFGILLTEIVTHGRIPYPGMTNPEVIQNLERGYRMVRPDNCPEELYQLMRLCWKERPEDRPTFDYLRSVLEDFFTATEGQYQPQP
# Sequence of UniProt P35590 (whole entry, looked up): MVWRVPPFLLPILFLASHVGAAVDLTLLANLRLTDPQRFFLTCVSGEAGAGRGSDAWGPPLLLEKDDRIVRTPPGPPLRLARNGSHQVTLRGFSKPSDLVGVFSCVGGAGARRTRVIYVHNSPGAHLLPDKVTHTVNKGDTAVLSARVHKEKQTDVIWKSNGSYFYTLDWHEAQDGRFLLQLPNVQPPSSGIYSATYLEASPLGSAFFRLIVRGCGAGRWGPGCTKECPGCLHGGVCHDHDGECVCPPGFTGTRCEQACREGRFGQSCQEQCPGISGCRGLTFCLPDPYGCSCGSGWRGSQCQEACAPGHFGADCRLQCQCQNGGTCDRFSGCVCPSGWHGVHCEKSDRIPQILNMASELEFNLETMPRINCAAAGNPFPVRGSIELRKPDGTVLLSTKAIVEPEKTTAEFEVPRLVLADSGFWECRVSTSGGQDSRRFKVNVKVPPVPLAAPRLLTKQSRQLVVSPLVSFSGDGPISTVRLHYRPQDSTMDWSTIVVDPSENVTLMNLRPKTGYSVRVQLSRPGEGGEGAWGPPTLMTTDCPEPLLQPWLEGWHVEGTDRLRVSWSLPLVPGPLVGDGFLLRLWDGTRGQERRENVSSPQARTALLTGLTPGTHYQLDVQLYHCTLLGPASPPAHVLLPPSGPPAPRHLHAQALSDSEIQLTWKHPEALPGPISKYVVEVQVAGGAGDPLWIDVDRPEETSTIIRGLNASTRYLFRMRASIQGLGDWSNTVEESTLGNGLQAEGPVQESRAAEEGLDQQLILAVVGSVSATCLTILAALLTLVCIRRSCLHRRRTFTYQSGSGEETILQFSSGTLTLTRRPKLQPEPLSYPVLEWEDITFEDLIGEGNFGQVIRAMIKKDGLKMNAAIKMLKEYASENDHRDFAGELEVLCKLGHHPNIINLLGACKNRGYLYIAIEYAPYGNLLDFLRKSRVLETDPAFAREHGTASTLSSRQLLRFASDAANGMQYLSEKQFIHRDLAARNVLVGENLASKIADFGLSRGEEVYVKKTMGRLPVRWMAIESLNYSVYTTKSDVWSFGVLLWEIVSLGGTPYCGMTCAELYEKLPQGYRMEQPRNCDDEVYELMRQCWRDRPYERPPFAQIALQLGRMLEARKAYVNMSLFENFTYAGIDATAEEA
# Sequence of UniProt P48736 (whole entry, looked up): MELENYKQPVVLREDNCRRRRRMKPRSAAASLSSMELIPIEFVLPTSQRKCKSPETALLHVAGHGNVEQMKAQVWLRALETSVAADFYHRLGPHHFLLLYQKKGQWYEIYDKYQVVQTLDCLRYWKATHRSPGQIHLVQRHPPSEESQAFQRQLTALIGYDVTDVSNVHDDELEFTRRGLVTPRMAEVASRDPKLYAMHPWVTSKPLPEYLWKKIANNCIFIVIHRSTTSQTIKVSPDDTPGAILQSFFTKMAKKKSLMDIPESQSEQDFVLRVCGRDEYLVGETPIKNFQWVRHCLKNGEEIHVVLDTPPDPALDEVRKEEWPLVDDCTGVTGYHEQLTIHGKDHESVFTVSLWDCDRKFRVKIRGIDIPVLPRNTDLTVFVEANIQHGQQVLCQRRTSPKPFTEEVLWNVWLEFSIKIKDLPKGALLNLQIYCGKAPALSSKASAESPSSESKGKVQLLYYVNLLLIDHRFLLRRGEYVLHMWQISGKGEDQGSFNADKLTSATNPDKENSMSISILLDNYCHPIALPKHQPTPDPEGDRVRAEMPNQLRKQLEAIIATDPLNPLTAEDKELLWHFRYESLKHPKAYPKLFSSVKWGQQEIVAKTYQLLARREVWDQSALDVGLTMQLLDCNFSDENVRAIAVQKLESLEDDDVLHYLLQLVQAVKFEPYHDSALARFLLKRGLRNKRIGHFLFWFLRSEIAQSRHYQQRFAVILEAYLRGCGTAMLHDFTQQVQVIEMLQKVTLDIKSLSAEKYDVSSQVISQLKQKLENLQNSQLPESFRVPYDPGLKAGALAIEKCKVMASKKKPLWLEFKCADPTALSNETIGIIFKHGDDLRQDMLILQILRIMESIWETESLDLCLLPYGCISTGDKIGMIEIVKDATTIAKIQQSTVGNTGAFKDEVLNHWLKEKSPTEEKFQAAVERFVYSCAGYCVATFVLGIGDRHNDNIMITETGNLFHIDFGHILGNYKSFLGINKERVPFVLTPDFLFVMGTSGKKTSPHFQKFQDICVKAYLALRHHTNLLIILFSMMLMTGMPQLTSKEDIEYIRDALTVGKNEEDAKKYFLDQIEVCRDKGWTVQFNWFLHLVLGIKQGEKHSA
# Sequence of UniProt P42336 (whole entry, unmodified, looked up): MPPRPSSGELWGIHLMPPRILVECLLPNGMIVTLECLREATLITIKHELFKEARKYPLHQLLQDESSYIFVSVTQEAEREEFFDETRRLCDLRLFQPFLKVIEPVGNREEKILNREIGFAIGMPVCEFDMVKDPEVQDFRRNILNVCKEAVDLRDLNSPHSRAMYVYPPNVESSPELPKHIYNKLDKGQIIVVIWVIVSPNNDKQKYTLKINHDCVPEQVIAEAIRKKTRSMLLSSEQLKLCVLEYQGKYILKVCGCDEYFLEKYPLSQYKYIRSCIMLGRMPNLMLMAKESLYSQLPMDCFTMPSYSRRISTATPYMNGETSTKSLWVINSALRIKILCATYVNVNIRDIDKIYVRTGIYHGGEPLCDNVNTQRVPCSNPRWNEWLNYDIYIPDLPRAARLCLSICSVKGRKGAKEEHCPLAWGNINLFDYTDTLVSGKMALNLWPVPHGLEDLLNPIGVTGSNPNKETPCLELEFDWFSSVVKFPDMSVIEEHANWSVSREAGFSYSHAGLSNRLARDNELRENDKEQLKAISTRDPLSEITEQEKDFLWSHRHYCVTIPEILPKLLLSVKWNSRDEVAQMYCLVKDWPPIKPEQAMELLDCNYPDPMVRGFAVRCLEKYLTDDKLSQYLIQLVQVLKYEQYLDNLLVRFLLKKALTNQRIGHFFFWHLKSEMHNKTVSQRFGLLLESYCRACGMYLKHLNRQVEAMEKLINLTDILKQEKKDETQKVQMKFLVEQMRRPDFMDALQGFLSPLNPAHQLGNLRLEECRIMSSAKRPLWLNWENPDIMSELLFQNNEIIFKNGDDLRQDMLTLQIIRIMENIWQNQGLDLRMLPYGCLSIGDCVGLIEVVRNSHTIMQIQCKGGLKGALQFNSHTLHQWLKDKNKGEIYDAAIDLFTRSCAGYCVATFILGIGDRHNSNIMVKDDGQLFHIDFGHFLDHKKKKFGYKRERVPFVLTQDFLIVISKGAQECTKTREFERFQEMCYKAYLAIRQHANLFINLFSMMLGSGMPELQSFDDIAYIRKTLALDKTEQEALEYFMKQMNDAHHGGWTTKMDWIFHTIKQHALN
# Sequence of UniProt Q96PN8 (whole entry, looked up): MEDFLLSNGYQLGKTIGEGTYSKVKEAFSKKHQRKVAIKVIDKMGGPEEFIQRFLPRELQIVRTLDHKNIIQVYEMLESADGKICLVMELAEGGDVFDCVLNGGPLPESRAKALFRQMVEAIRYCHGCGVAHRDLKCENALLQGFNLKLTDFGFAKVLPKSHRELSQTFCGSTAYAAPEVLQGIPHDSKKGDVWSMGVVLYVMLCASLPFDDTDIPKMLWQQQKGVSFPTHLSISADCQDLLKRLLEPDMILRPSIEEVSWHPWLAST

# Sample 1
# SMILES: N#CC1(c2ccccn2)CCN(Cc2cc(C(=O)N3CCCC3)c(=O)n3ccccc23)CC1
# Observed: cell-free assay
# Method: competition with immobilised ligand
# Concentration: 1 µM
target,remaining binding
"Tyrosine-protein kinase Lck (LCK, Homo sapiens, UniProt P06239)",100%
"Tyrosine-protein kinase receptor Tie-1 (TIE1, Homo sapiens, UniProt P35590)",98%
"Mitogen-activated protein kinase kinase kinase 9 (MAP3K9, Homo sapiens, UniProt P80192)",72%
"Tyrosine-protein kinase ABL1, phosphorylated (ABL1, Homo sapiens, UniProt P00519, F317L)",100%
"Mitogen-activated protein kinase 13 (MAPK13, Homo sapiens, UniProt O15264)",89%
"Testis-specific serine/threonine-protein kinase 3 (TSSK3, Homo sapiens, UniProt Q96PN8)",100%
"Serine/threonine-protein kinase WNK2 (WNK2, Homo sapiens, UniProt Q9Y3S1)",100%
"Phosphatidylinositol 4,5-bisphosphate 3-kinase catalytic subunit gamma isoform (PIK3CG, Homo sapiens, UniProt P48736)",75%
"Phosphatidylinositol 4,5-bisphosphate 3-kinase catalytic subunit alpha isoform (PIK3CA, Homo sapiens, UniProt P42336, C420R)",87%
"Myosin-IIIa (MYO3A, Homo sapiens, UniProt Q8NEV4)",80%
"MAP/microtubule affinity-regulating kinase 3 (MARK3, Homo sapiens, UniProt P27448)",87%

# Sample 2
# Target: Interferon regulatory factor 3, full length, phosphomimetic (IRF3, Homo sapiens, UniProt Q14653, residues 1-427, S386D/S396D/S398D/S402D/T404D/S405D)
# Sequence of UniProt Q14653 (whole entry, unmodified, looked up): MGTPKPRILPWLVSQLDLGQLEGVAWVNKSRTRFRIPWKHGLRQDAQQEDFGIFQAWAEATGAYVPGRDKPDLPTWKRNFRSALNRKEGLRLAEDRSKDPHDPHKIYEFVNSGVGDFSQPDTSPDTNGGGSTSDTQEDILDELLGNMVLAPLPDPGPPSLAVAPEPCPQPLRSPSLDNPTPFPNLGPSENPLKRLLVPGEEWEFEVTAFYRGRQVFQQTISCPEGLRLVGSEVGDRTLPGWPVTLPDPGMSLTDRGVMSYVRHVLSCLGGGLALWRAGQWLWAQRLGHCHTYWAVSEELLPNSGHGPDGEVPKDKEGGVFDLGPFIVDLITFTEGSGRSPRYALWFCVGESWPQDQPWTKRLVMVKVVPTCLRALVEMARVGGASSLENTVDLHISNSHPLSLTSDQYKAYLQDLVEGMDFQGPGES
# Method: protein-binding microarray
# Form: double-stranded DNA, one strand shown
# Matrix: in vitro
# Concentration: 2540 nM top
# Setting: 60-bp whole probe
# Added: salmon DNA 0.4 mg/ml
# Baseline: random background probes
# Reading: higher = stronger binding
# Shared flanks, not repeated: GCCTAGCAC … GTCTTGATTCGCTTGACGCTGCTG
Strand,fitted relative affinity [z-score]
TTAAAACTGGGGACTGGATTAGTGCTA,-0.789
TTAGATAGCAGTTTCGATTAGTGCTAG,3.39
GACGGACTGGGTATCCGGACGTGCTAG,0.162
GAGGGTCTCGGACTGGGGACGTGCTAG,-0.997
AGGCTCATACATCTGGGTGGGTGCTAG,-0.261
CTTTCTCTCTGTGACACAGAGTGCTAG,5.97
TTAGGCTCCCTTTTCCTTTAGTGCTAG,4.17
TTAGGACTGGGGTACCGGTTAGTGCTA,-0.416

# Sample 3
# Target: ABI1, truncated, D143A, DHFR fusion (Arabidopsis thaliana)
# Method: DHFR PCA, deep sequencing
# Matrix: yeast
# Setting: methotrexate growth selection, single substitutions
# Added: (+)-ABA 710 µM
# Baseline: wild-type fitted maximum
# Reading: higher = stronger binding
# Starting sequence: PYL1, truncated, DHFR fusion (Arabidopsis thaliana); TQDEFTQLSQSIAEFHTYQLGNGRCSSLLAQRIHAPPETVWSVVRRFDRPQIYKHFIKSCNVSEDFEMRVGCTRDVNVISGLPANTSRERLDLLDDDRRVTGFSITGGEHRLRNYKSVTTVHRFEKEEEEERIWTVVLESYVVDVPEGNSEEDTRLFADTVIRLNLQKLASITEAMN
Substitution,relative binding score
Q167N,96.3%
I52K,97.9%
E4G,95.8%
L94V,92.2%
I33Q,7.75%
Q2E,105%
P36Y,96.4%
P37Q,89.1%

# Further values, each from its own experiment
Substance,target,assay,test system,conditions,scale,endpoint,value
"PhoQ, residues 284 288 289 292 302 303 SIHMAM","PhoP, residues 12 14 15 18 19 AGCRL (Escherichia coli, UniProt P23836)","Sort-seq, refers to: YFP reporter",E. coli,"PhoQ-PhoP variant library, added: 10 µM Mg2+","baseline: high Mg2+ state, higher = stronger signaling",fold induction,16.2

# Repeated from above (sample 3):
Substitution,relative binding score
L94V,92.2%
I33Q,7.75%
Q2E,105%
P36Y,96.4%
